# Experimental data of several laboratories.
# Each line is one published result; not all experiments were run side by side. Values joined by “and” are separate records of one study, mostly repeats; a detail may differ.
SMILES,test system,setting,scale,endpoint,value
COc1ccc([C@@H](O)c2cc(-c3ncnc4cc(N5CCOCC5)ccc34)c(F)cc2Cl)nn1,"mouse, orthotopic M12-eGFP tumour","125 mg/kg, together with: radiotherapy",baseline: radiotherapy alone,median survival extension,105% and 104%
Cc1cc(-c2nc(C(=O)Nc3cc4oc(N5CCOCC5)nc4nc3N3CC[C@@H](O)C3)co2)ccn1,"OCI-Ly3 PCNSL xenograft, mouse, intracranial tumour","oral, 100 mg/kg, two weeks",baseline: vehicle,median survival increase,68%
Nc1ccn([C@@H]2O[C@H](CO)[C@@H](O)C2(F)F)c(=O)n1,"mouse, MIA PaCa-2 experimental metastasis","intraperitoneal, 80 mg/kg",,median survival,62.1 days
Cc1c(C(=O)O)ccc2c3n(nc12)[C@@H]1[C@H](C3)N(CC2CC2)[C@@]2(C(=O)Nc3cc(Cl)ccc32)[C@H]1c1cccc(Cl)c1F,"mouse, orthotopic MDM2-amplified PDX","2 mg/kg weekly, 2 doses",,median survival,66 days
CC(C)[C@@H](CS(=O)(=O)C(C)C)N1C(=O)[C@@](C)(CC(=O)O)C[C@H](c2cccc(Cl)c2)[C@H]1c1ccc(Cl)cc1,"mouse, orthotopic PDX","100 mg/kg, extended dosing until moribund",,median survival,51 days
Cc1nc(Nc2ncc(C(=O)Nc3c(C)cccc3Cl)s2)cc(N2CCN(CCO)CC2)n1,"mouse, MIA PaCa-2 experimental metastasis","oral, 40 mg/kg",,median survival,73.6 days
COc1ccc(-c2ccc3ncc4c(c3c2)n([C@@H]2CCN(C)CC2(F)F)c(=O)n4C)cn1,"mouse, sample A orthotopic PDX","7.5 mg/kg x 10, no radiation",,median survival,23 days
CCCCCN1C[C@H](O)[C@@H](O)[C@H](O)[C@@H]1CO,"Hexb-/- mouse, mixed sex",30 mg/kg/day,,median survival time,150 days

# Some of these lines once more:
SMILES,test system,setting,scale,endpoint,value
Cc1nc(Nc2ncc(C(=O)Nc3c(C)cccc3Cl)s2)cc(N2CCN(CCO)CC2)n1,"mouse, MIA PaCa-2 experimental metastasis","oral, 40 mg/kg",,median survival,73.6 days
